Measured values of several laboratories.
“And” joins repeats or separate records; there may be more than shown.
Target: Serine/threonine-protein kinase PLK3 (PLK3, Homo sapiens, UniProt Q9H4B4)
UniProt Q9H4B4, sequence (whole entry, looked up): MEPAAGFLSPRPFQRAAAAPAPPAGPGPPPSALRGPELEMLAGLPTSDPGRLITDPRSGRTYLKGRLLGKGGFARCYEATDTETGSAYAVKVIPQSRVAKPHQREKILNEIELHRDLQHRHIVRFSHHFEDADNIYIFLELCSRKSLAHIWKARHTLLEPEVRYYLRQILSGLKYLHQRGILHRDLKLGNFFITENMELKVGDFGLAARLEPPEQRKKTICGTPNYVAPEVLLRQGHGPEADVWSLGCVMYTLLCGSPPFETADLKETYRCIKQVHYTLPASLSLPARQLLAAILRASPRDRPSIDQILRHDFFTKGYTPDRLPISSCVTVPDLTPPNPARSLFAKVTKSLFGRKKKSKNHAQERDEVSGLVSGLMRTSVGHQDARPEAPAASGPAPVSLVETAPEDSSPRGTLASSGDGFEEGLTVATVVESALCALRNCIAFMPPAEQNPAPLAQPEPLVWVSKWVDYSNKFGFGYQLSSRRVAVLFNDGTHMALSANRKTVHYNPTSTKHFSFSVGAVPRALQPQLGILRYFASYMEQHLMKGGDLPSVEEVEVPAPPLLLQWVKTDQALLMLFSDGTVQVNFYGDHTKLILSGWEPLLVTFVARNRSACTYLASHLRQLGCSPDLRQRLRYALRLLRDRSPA

Compound	test	setting	scale	quantity	value
CCn1cc(C(=O)O)c(=O)c2c(N)c(F)c(NC3CCCCC3)cc21	kinase activity	0.1 µM, with: ATP at Km		inhibition	-13.3%
COc1cc(Nc2nccc(-c3cnn4nc(OC)ccc34)n2)cc(C(F)(F)F)c1	binding, competition with immobilised ligand	1 µM		remaining binding	92%
O=C=[N][Ru-4]123([n]4c5ccc(O)cc5c5c6c(c7cc(F)c[n+]1c7c54)C(=O)NC6=O)[S+]1CC[S+]2CC[S+]3CC1 (centres unmarked)	enzyme activity	100 nM, human enzyme, with: 10 µM ATP	reference: untreated	remaining activity	113%
CNS(=O)(=O)Nc1nccc(Cc2c(C)c3ccc(Oc4ncccc4F)cc3oc2=O)c1F	binding, competition with immobilised ligand	10 µM		remaining binding	97%
CN1CCN(Cc2ccc(NC(=O)c3cccc(C#Cc4cnc(N)c5ncccc45)c3)cc2C(F)(F)F)CC1	cell-free assay, competition with immobilised ligand	0.5 µM		remaining binding	69%
Cc1cccc(O[C@H]2CCC[C@@H](C(C)CNCc3ccncc3)C2)c1 (relative stereo)	enzyme activity, inhibitor	10 µM		inhibition	-24%
C=CC(=O)Nc1cccc(-c2cnc3[nH]cc(C(=O)NC(C)(C)C)c3n2)c1	enzyme activity, inhibitor	0.1 µM		inhibition	14%
CNC(=O)C[C@H](Cc1ccc(C#N)cc1)NC(=O)c1cc(-c2ccc(CN[C@H](C)c3ccc(C)cc3)o2)ccc1Cl	enzyme activity, inhibitor	1 µM		activity vs control	104%
NC(=O)[C@@H](O)C[C@H]1CCc2sc3ncnc(O[C@H]4CC[C@H](N5CCOCC5)CC4)c3c21	enzyme activity, inhibitor	10 µM		inhibition	3%
CN1CCN(Cc2ccc(-c3ccc(CO[C@H]4CCC[C@@H]4NC(=O)c4cc(-c5cnn(C)c5)cnc4N)cc3)cc2)CC1	enzyme activity, inhibitor	0.1 µM		inhibition	-2%
COc1cc(-n2cc3cc(F)cc(C(N)=O)c3n2)cc(Cl)c1C1CC(O)(CCO)Cc2ccccc21 (centres unmarked)	enzyme activity, inhibitor	10 µM		inhibition	0.91%
C=CC(=O)N1CCCC(n2c(=O)c3ncccc3n(Cc3ccc(Oc4ccccc4)cc3)c2=O)C1 (centres unmarked)	cell-free assay, competition with immobilised ligand	1 µM		remaining binding	61%
CNC(=O)C1CCN(c2cc(C)c(F)cc2NC(=O)c2ccc(-c3cc(O)ccc3C)c(C)c2)CC1	binding, competition with immobilised ligand	1 µM		remaining binding	85%
COCC12C(=O)NC3C4(C(OC)CC1O)C1CC5(O)C(OC)C(O)C(OC(C)=O)(C1C5OC(=O)c1ccccc1)C3(O)C(OC)C24 (centres unmarked)	kinase activity, inhibitor, ProQinase kinase profiling	25 µM	reference: control	remaining activity	101% and 105%
CCN1CCN(Cc2ccc(C(=O)Nc3ccc(C)c(NCc4cnc5[nH]ccc5c4OC)c3)cc2C(F)(F)F)CC1	binding, competition with immobilised ligand	1 µM		remaining binding	100%
Cc1cnc2nc1Nc1cccc(c1)COC/C=C/COCc1cc(ccc1OCCN1CCOCC1)N2	binding	0.1 µM		remaining binding	91%
COc1ccc(NC(=O)Nc2ccc3c(c2)C(=O)N(C(C)CO)CC(C)C(CN(C)Cc2ccc4c(c2)OCO4)O3)cc1 (centres unmarked)	binding, competition with immobilised ligand	10 µM		remaining binding	48%
CN1CC[C@@H](COc2cnc(C#N)cc2-c2ccn3nc(NC(=O)C4CC4)cc3c2)C1	enzyme activity, inhibitor	1 µM		inhibition	7%
CC(=O)N1c2ccc(-c3ccc(CNC(=O)c4cn5cc(-c6cnc(N)nc6)nc(N6CCOCC6)c5n4)cc3)cc2CC[C@@H]1C	KINOMEscan	10 µM		remaining binding	98%
O=C(O)CCC(=O)c1cccc(NS(=O)(=O)c2c[nH]c3ncccc23)c1	kinase activity, radiometric	10 µM		remaining activity	104%

Excerpt of the above:
Compound	test	setting	scale	quantity	value
CC(=O)N1c2ccc(-c3ccc(CNC(=O)c4cn5cc(-c6cnc(N)nc6)nc(N6CCOCC6)c5n4)cc3)cc2CC[C@@H]1C	KINOMEscan	10 µM		remaining binding	98%
C=CC(=O)Nc1cccc(-c2cnc3[nH]cc(C(=O)NC(C)(C)C)c3n2)c1	enzyme activity, inhibitor	0.1 µM		inhibition	14%
